Measured values from different studies.
Compare with care: the assays were run in different laboratories. ± gives the spread as reported. In brackets after ≈: the same amount, converted by molar mass.
OPRK1: Kappa-type opioid receptor (OPRK1, Homo sapiens, UniProt P41145)
OPRM1: Mu-type opioid receptor (OPRM1, Homo sapiens, UniProt P35372)

Protein sequences, listed by entry. Tags and fused reporters are not part of them.
UniProt P41145, whole entry: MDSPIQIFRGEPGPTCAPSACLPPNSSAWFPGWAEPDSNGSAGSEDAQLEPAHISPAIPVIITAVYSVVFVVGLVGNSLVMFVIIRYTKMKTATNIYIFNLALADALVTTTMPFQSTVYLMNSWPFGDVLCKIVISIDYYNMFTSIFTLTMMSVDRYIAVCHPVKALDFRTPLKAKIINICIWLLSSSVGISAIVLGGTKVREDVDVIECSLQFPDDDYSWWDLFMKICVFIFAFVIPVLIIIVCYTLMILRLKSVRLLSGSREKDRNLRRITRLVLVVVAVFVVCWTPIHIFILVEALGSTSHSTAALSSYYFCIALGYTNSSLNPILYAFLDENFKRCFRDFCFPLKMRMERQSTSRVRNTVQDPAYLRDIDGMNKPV
UniProt P35372, whole entry: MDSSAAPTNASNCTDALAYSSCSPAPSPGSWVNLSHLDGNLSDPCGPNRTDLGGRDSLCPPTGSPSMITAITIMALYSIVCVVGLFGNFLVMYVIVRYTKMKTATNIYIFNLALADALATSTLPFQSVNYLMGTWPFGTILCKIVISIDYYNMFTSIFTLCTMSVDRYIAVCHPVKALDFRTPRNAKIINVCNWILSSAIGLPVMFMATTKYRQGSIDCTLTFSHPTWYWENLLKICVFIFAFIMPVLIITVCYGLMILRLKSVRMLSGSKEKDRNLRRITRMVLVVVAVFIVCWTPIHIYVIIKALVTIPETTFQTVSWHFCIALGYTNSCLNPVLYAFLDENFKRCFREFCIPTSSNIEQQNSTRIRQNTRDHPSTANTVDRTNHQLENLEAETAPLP
UniProt P10635, whole entry: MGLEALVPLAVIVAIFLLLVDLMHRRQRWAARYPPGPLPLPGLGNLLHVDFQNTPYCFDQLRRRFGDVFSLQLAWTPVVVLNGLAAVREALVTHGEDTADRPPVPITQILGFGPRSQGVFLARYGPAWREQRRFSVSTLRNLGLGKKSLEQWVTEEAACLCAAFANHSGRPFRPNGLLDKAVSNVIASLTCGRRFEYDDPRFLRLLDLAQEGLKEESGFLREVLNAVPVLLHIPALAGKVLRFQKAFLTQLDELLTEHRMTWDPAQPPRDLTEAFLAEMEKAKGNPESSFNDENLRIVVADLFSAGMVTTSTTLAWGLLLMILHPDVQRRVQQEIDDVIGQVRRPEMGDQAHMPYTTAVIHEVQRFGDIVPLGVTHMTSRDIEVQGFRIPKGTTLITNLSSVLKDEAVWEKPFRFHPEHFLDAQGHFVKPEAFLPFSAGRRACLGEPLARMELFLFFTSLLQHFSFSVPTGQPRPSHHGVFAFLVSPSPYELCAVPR
UniProt P56088, whole entry: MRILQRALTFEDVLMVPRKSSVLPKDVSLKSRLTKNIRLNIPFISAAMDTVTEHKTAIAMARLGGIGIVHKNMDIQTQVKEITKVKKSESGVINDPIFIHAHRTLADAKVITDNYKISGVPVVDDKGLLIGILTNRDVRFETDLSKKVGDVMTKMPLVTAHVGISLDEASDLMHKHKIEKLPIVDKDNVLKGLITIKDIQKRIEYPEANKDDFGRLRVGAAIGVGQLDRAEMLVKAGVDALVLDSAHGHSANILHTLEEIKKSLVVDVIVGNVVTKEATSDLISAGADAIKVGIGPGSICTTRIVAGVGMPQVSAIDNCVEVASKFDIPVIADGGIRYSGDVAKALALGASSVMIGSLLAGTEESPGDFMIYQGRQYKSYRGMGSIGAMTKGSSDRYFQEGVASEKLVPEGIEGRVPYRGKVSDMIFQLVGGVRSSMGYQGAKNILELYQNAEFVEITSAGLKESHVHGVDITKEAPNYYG

| Compound | tested on | assay | test system | conditions | scale | measurement | value |
| --- | --- | --- | --- | --- | --- | --- | --- |
| CN(C(=O)Cc1ccc(Cl)c(Cl)c1)[C@H](CN1CCCC1)c1ccccc1 | OPRK1 | receptor internalization, agonist, on-cell western | – | human receptor | baseline: control | Emax | 54.7 ± 1% |
| Nc1ccc2nc3ccc(=O)cc-3oc2c1 | Mycobacterium tuberculosis | – | mc2 6206 clofazimine-resistant fbiC mutant | 7 days | – | MIC90 | 5.3 µM (≈ 1.12 µg/mL) |
| COc1cc(OC)c2ccccc2c1C=C1C(=O)NC(=S)NC1=O | Ly19, SU-DHL-8 | ELISA, item: HMOX1 | – | 4 µM, 24 h | – | protein level | increased |
| CC#C/C(=N\OC[C@H]1COCCN1)c1ccc2ncnc(Nc3ccc(OCc4cccc(F)c4)c(Cl)c3)c2c1 | NCI-N87 | cell growth | – | – | – | IC50 | 7.8 ± 1.4 nM |
| CCc1nc(N)nc(N)c1C#CCc1cc(OC)cc(-c2ccc(C(=O)O)cc2)c1 | Staphylococcus aureus | – | MRSA isolate UCH 1 | – | – | MIC | 2.5 µg/mL (≈ 6.21 µM) |
| CCN1CCN(Cc2ccc(NC(=O)c3ccc(C)c(/C=C/c4cnc5[nH]ccc5c4OC)c3)cc2C(F)(F)F)CC1 | NDE1-PDGFRB fusion | kinase-CDC37 interaction, cell-based kinome screen | – | 5 µM | baseline: vehicle | log2 fold change | 0.135 |
| CCN(CC)C(=O)Oc1ccc(C(=O)Nc2cccc3cc[nH]c23)cc1 | – | NMDA receptor EPSC, inhibitor, whole-cell patch clamp | CA1 pyramidal neurons, mouse, hippocampal slices | 10 µM | baseline: control | peak amplitude | 100 ± 3.5% |
| Cc1c(N2CC[C@@H](CN)C2)c(F)cc2c(=O)n(N)c(=O)n(C3CC3)c12 | Staphylococcus aureus topoisomerase IV GrlA S81Y | DNA cleavage | – | – | – | CC3 | 0.18 µM |
| CC(C)Cc1nnc2c(C(=O)NC3c4ccccc4-c4ccccc43)cccn12 | Escherichia coli | broth microdilution | MB5746 rpoC D622G | – | baseline: mutant over wild type | MIC ratio | > 32 |
| CCCN1CCN(c2ccc3c(c2)C2CC3CCN2C(=O)OCc2ccccc2)CC1 (stereo not shown) | benzodiazepine site, rat | radioligand binding | rat brain | – | – | Ki | 4770 nM |
| c1ccc(Nc2cccc3ccccc23)cc1 | Manis javanica OBP3 F52A | binding, fluorescence binding | – | with: 1-NPN probe | – | Kd | 430 ± 80 nM |
| Nc1ccc(C(=O)O)c(O)c1 | Mycobacterium bovis | – | BCG Tac^r9.1, thyA S125P missense | TA-C-resistant thyA mutant | – | MIC50 | > 100 µM |
| O=C1C=C(NCCc2cc(Br)c(O)c(Br)c2)C(=O)c2ncccc21 | – | – | SCID/Beige mice, MNNG-HOS lung metastasis | dose not given | – | median survival | 48.5 days |
| CCCCCCCCCCCCCC(=S)NCCCC[C@H](NC(=O)OCc1ccccc1)C(=O)Nc1cccc(O)c1 | MDA-MB-231 | cell growth | – | – | – | GI50 | 6000 ± 2000 nM |
| Cc1cc(N(CCCl)CCCl)ccc1C(=O)O | ACHN | cell growth, inhibitor, MTT | – | – | – | IC50 | 5.72 µg/mL |
| CO[C@]12CC[C@@]3(C[C@@H]1C(C)(C)O)[C@H]1Cc4ccc(O)c5c4[C@@]3(CCN1CC1CC1)[C@H]2O5 | Cytochrome P450 2D6 (CYP2D6, Homo sapiens, UniProt P10635) | – | human liver microsomes | 10 µM | – | inhibition | 59.9% |
| CC1=C(c2ccc(Cl)cc2)S(=O)(=O)N=C1N1CCC(N2CCCCC2)CC1 | AAC(3)-IV Escherichia coli | acetyltransferase activity, inhibitor | – | concentration not given | – | inhibition | no inhibition |
| O=c1ccc2nc3ccc(OCc4ccc([N+](=O)[O-])s4)cc3oc-2c1 | Mycobacterium tuberculosis | – | mc2 6206 clofazimine-resistant fbiC mutant | 7 days | – | MIC90 | 213 µM (≈ 75.5 µg/mL) |
| CC[C@H](C)[C@@H]1NC(=O)[C@H](CCC(=O)O)NC(=O)[C@@H]2CCCN2C(=O)[C@H](Cc2c[nH]cn2)NC(=O)[C@H](CC(=O)O)NC(=O)[C@H](Cc2ccc(O)cc2)NC(=O)[C@H](CC(N)=O)NC(=O)[C@@H]2CSSC[C@@H]3NC(=O)CNC(=O)CNC(=O)CNC(=O)[C@H](C)NC(=O)[C@H](C)NC(=O)CNC(=O)CNC(=O)[C@H](CSSC[C@H](NC3=O)C(=O)N[C@@H](CO)C(=O)N[C@@H](CC(=O)O)C(=O)N3CCC[C@H]3C(=O)N[C@@H](CCCNC(=N)N)C(=O)N2)NC1=O | Cav2.1 human Q1856E | Ba2+ current | – | 200 nM | – | inhibition | 6.6 ± 1.7% |
| C(CCCCCN1COOC2(CCCCCC2)OOC2(CCCCCC2)OOC1)CCCCN1COOC2(CCCCCC2)OOC2(CCCCCC2)OOC1 | HEK293 | cytotoxicity, 7-AAD flow cytometry | – | – | – | IC50 | 5420 ± 370 nM |
| O=c1ccc2nc3ccc(OC4CCCC4)cc3oc-2c1 | Mycobacterium tuberculosis | – | mc2 6206 clofazimine-resistant fbiC mutant | 7 days | – | MIC90 | 9.9 µM (≈ 2.78 µg/mL) |
| O=C(Nc1ccccc1)c1cc([N+](=O)[O-])ccc1Cl | Salmonella typhimurium | Ames plate incorporation | TA100 | 50 µg/plate, without metabolic activation | – | revertants | 969 ± 22 revertants/plate |
| CC[C@](O)([C@H]1C[C@@]23CC[C@]1(OC)[C@@H]1Oc4c(O)ccc5c4[C@@]12CCN(CC1CC1)[C@@H]3C5)C(C)(C)C | OPRM1 | binding, radioligand displacement | CHO | with: [3H]DAMGO | – | Ki | 4 ± 0.57 nM |

| Compound | tested on | assay | test system | conditions | scale | measurement | value |
| --- | --- | --- | --- | --- | --- | --- | --- |
| CCCCCCC1c2ccc(O)cc2Oc2cc(O)ccc21 | Salmonella Typhimurium | – | SL1344 | with: polymyxin B nonapeptide 25 µg/mL | – | MIC | 13 µg/mL (≈ 43.6 µM) |
| O=c1ccc2nc3ccc(OCc4ccccc4)cc3oc-2c1I | Mycobacterium tuberculosis | – | mc2 6206 clofazimine-resistant fbiC mutant | 7 days | – | MIC90 | 242 µM (≈ 104 µg/mL) |
| O=C(Cn1c(-c2ccccn2)nc2ccccc21)Nc1ccc2ccccc2c1 | Inosine-5'-monophosphate dehydrogenase (guaB, Helicobacter pylori, UniProt P56088) | enzyme activity, inhibitor | – | corrected for open enzyme conformation | – | IC50 | 0.5 nM |
| CN(C(=O)Cc1cccc2occc12)[C@H]1CC[C@@]2(CCCO2)C[C@@H]1N1CCCC1 | OPRK1 | receptor internalization, agonist, on-cell western | – | human receptor | baseline: control | Emax | 62.8 ± 2.6% |
| Oc1ccc(C2NCCc3c2[nH]c2ccc(Cl)cc32)cc1O (stereo not shown) | dengue virus 4 | viral replication, plaque reduction | BHK-21, TVP360 | – | – | IC50 | < 1000 nM |
| CCOC(=O)OCOc1c(-c2ccc(Oc3ccc(OC(F)(F)F)cc3)cc2)c(C)nc2cc(OC)c(Cl)cc12 | Plasmodium falciparum | cell growth, SYBR Green I | D6 | 72 h | – | IC50 | 6 nM |
| CCC(C)C1NC(=O)/C(=C(/C)O)C1=O (stereo not shown) | plasma membrane H+-ATPase (Spinacia oleracea) | ATP hydrolysis | plasma membrane fraction | 1.0 µM | – | Vmax | 219 nmol Pi/mg/min |
| O=C(C1CC1)N1CC2CC(C1)N2 | – | forepaw asymmetry test | rat, unilateral 6-OHDA lesion | – | – | forelimb use asymmetry | no effect |
| C(CCCCCN1COOC2(CCCC2)OOC2(CCCC2)OOC1)CCCCN1COOC2(CCCC2)OOC2(CCCC2)OOC1 | Jurkat | cytotoxicity, 7-AAD flow cytometry | – | – | – | IC50 | 3240 ± 240 nM |
| O=c1ccc2nc3ccc(OCc4ccc([N+](=O)[O-])o4)cc3oc-2c1I | Mycobacterium tuberculosis | – | mc2 6206, fbiC mutant, clofazimine-resistant | – | – | MIC90 | inactive |
| CSCC[C@@H](C=O)NC(=O)[C@H](CC(C)C)NC(=O)[C@H](CC(C)C)NC(C)=O | BEAS-2B | neutral red uptake | – | 48 h | – | CC50 | > 100000 nM |
| CCc1nc(N)nc(N)c1C#CCc1cc(OC)c(OC)c(-c2ccncc2)c1 | Staphylococcus aureus | – | MRSA isolate UCH 121 | – | – | MIC | 0.625 µg/mL (≈ 1.6 µM) |
| CC[C@](O)([C@H]1C[C@@]23C=C[C@]1(OC)[C@@H]1Oc4c(O)ccc5c4[C@@]12CCN(CC1CC1)[C@@H]3C5)C(C)(C)C | OPRM1 | binding, radioligand displacement | CHO | with: [3H]DAMGO | – | Ki | 4.2 ± 0.6 nM |
| O=c1ccc2nc3ccc(OCc4ccc([N+](=O)[O-])o4)cc3oc-2c1 | Mycobacterium tuberculosis | – | mc2 6206 bedaquiline-resistant MmpL5 regulator mutant | 7 days | – | MIC90 | 0.31 µM (≈ 0.105 µg/mL) |
| CSc1nc(Cl)cc(Sc2nnc(-c3cc(C(F)(F)F)cc(C(F)(F)F)c3)[nH]2)n1 | Shigella flexneri | – | ATCC 12022 | with: PMBN 25 µg/mL | – | MIC | 2.2 µg/mL (≈ 4.66 µM) |
| O=c1ccc2nc3ccc(OCCO)cc3oc-2c1 | Mycobacterium tuberculosis | – | mc2 6206 PA-824-resistant ddn mutant | 7 days | – | MIC90 | > 256 µM |
| CCOc1ccc2cc(-c3nn(CC4CCN(C)CC4)c4ncnc(N)c34)ccc2n1 | other kinases in panel | kinase activity, inhibitor | – | – | – | IC50 | > 10000 nM |
| Cc1ccc(S(=O)(=O)N(C)CC(=O)N(Cc2ccc(C3CCCCC3)cc2)c2ccc(C(=O)O)c(O)c2)cc1 | NIH3T3/v-Src, PANC-1, MDA-MB-231 | immunoblotting, item: phospho-Shc | – | concentration not given, 24 h | – | phosphorylation level | no effect |
| CC(C)Oc1ccc2nc3ccc(=O)cc-3oc2c1 | Mycobacterium tuberculosis | – | mc2 6206 clofazimine-resistant fbiC mutant | 7 days | – | MIC90 | 39 µM (≈ 9.96 µg/mL) |
| C[C@H](Cc1ccc(O)c(O)c1)[C@@H](C)Cc1ccc(O)c(O)c1 | – | – | human skin | 3% solution, 8 h, skin UV-treated 30 min | – | amount in dermis | 7.67 ± 1.28 µg |
| CC1CCC2(CC1)OOCN(CCCCCCCCCCN1COOC3(CCC(C)CC3)OOC3(CCC(C)CC3)OOC1)COOC1(CCC(C)CC1)OO2 (stereo not shown) | HEK293 | cytotoxicity, 7-AAD flow cytometry | – | – | – | IC50 | 12200 ± 480 nM |
| C[C@H]1CCCN1Cc1cc2cnc(NC(=O)c3ccc4c(cnn4C)c3)cc2[nH]1 | – | – | MV4;11 cells, NSG mouse, disseminated xenograft | oral, 200 mg/kg once daily, 28 days | baseline: control | median survival increase | 70% |
| C=C[C@@H]1[C@H]2CCC[C@]1(c1cccc(O)c1)CCN2CCc1ccccc1 | – | – | mouse cytosol 2 mg/mL | 1 µM, pH 7.4 | – | half-life | 1.9 h |

Excerpt of the above:
| Compound | tested on | assay | test system | conditions | scale | measurement | value |
| --- | --- | --- | --- | --- | --- | --- | --- |
| CO[C@]12CC[C@@]3(C[C@@H]1C(C)(C)O)[C@H]1Cc4ccc(O)c5c4[C@@]3(CCN1CC1CC1)[C@H]2O5 | Cytochrome P450 2D6 (CYP2D6, Homo sapiens, UniProt P10635) | – | human liver microsomes | 10 µM | – | inhibition | 59.9% |
| CC1=C(c2ccc(Cl)cc2)S(=O)(=O)N=C1N1CCC(N2CCCCC2)CC1 | AAC(3)-IV Escherichia coli | acetyltransferase activity, inhibitor | – | concentration not given | – | inhibition | no inhibition |
| O=c1ccc2nc3ccc(OCc4ccc([N+](=O)[O-])s4)cc3oc-2c1 | Mycobacterium tuberculosis | – | mc2 6206 clofazimine-resistant fbiC mutant | 7 days | – | MIC90 | 213 µM (≈ 75.5 µg/mL) |
